Measurements pooled from the literature.
Protocols differ between the studies behind these lines. “And” joins repeats or separate records; there may be more than shown. ± marks the error that the study gave.
Sequence of UniProt Q9Y6G9 (whole entry, looked up): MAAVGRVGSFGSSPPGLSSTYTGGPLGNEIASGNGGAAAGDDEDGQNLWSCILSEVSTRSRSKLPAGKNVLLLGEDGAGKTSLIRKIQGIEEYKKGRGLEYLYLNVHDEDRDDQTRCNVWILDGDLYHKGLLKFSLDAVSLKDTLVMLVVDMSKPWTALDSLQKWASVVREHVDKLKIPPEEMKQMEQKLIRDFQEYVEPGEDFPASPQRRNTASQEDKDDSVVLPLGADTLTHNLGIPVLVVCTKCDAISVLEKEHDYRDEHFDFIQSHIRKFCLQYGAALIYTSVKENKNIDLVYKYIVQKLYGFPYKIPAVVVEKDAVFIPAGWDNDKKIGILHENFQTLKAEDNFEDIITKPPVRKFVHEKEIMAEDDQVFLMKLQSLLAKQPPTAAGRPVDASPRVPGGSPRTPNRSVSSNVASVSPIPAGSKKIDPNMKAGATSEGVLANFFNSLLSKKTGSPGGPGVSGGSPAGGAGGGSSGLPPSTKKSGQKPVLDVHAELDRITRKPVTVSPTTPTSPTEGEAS
Sequence of UniProt O70423 (whole entry, looked up): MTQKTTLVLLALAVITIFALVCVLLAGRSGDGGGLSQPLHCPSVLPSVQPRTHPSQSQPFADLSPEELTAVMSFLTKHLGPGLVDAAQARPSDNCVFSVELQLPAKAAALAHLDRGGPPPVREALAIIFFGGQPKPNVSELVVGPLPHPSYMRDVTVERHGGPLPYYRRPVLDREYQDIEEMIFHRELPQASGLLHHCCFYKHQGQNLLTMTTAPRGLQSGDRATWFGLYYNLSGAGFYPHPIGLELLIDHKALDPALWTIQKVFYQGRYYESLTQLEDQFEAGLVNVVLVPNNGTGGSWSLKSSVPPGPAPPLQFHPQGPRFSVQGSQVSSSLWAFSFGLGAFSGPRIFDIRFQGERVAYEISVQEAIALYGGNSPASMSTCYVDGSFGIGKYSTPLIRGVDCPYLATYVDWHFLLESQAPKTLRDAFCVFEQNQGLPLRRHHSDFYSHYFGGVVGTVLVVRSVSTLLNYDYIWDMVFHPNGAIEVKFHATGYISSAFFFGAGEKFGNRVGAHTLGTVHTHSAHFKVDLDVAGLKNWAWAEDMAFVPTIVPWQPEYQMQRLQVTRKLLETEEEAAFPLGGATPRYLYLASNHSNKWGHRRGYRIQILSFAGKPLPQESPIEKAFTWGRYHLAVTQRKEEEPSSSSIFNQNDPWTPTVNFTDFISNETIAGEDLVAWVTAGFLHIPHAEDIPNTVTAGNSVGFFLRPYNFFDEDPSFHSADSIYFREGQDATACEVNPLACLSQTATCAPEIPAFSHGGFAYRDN
Sequence of UniProt P08684 (whole entry, looked up): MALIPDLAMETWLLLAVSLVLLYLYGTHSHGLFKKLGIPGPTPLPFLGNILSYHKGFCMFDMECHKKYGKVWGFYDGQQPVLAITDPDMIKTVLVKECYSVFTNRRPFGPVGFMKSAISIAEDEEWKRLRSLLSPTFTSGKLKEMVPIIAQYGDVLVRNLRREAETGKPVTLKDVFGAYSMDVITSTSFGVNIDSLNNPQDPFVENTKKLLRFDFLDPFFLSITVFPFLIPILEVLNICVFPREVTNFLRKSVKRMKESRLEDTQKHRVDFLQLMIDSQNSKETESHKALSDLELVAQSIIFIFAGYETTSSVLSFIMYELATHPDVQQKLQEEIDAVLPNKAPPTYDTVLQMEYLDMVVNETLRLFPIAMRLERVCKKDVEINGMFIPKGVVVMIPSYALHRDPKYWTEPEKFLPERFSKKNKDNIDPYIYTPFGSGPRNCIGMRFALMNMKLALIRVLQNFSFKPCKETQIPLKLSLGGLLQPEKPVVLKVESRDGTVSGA
Sequence of UniProt Q9UKI8 (whole entry, looked up): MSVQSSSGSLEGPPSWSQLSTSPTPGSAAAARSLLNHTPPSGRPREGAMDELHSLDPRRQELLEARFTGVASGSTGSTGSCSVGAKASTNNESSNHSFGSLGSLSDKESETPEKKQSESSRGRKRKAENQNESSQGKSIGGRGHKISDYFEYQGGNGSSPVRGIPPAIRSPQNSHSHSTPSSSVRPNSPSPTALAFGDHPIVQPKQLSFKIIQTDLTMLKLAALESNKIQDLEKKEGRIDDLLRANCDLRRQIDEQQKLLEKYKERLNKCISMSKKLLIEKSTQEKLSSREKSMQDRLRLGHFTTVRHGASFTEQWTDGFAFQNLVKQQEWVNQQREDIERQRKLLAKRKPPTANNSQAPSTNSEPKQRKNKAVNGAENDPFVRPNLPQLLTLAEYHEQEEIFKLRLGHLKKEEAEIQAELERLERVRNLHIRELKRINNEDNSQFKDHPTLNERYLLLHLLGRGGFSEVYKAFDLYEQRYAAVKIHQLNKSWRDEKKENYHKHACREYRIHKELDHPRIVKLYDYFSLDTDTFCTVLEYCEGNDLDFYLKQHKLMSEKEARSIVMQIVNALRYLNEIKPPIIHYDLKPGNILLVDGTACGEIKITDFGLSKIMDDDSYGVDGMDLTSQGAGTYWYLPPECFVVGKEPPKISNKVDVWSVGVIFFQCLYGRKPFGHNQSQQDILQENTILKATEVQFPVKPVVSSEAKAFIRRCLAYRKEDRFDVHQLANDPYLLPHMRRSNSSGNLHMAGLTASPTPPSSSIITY

C[C@H](Cn1cnc2c(N)ncnc21)OCP(=O)(O)O — slope of fold mRNA vs concentration (cryopreserved human hepatocytes, donor LLT; CYP3A4 induction, measured: CYP3A4 mRNA; concentration not given, 48 h): -0.00225
COc1ccc(-c2coc3cc(O)cc(O)c3c2=O)cc1 — amount transported (Caco-2 monolayers; 100 µg/mL, 2 h, basolateral to apical): 16.7 ± 0.1%
CCCS(=O)(=O)Nc1ccc(F)c(C(=O)c2c[nH]c3ncc(Cl)cc23)c1F — cell proliferation (C2C12; 100 µM): no inhibition
OC(CCN1CCCCC1)(c1ccccc1)C1CC2C=CC1C2 (stereo not drawn) — change in EEG Beta2-power Pz-O2 (resting-state EEG; healthy elderly humans; oral, 4 mg, eyes open, LS mean; relative to: baseline): -0.1%
Cc1cc(C)c(CNC(=O)c2cc(Cl)c3c(c2C)O[C@@](C)([C@H]2CC[C@H](N(C)C)CC2)O3)c(=O)[nH]1 — efflux ratio (Caco-2; 3 µM): 48.6
Cc1cc(Nc2ncnc3ccc(NC4=NC(C)(C)CO4)cc23)ccc1Oc1ccn2ncnc2c1 — efflux ratio (MDCK-II cells, parental; bidirectional transwell permeability; 1 µM, 1 h, pH 7.4): 2.5 ± 0.52
O=C(COP(=O)(O)O)[C@@H](O)[C@H](O)[C@H](O)COP(=O)(O)O — thermal stability ratio (Cytoplasmic dynein 1 light intermediate chain 1 (DYNC1LI1, Homo sapiens, UniProt Q9Y6G9); thermal proteome profiling; HepG2 cell lysate; concentration not given, 57 over 37 °C; relative to: compound over control): 0.565 and 0.75 and 0.655
Cc1cc(Nc2ccc(S(F)(F)(F)(F)F)cc2)n2nc(C(C)(F)F)nc2n1 — patients with sinus bradycardia (Plasmodium falciparum; P. falciparum malaria patients; oral, 400 mg): 15.4%
CCCC(CCC)NC(=O)c1ccc2c(c1)OCO2 — cells with aberrations (CHO-WBL; 0.19 mg/mL, without S9, exposure): 0.5%
CC[C@H](C)[C@H](NC(=O)[C@H](CCCCN)NC(=O)[C@H](CCC(N)=O)NC(=O)[C@@H](NC(=O)[C@@H](NC(=O)[C@H](CCCNC(=N)N)NC(=O)[C@H](CCCCN)NC(=O)[C@H](Cc1ccccc1)NC(=O)CN)[C@@H](C)CC)C(C)C)C(=O)N[C@@H](CCCNC(=N)N)C(=O)N[C@@H](CC(=O)O)C(=O)N[C@@H](Cc1ccccc1)C(=O)N[C@@H](CC(C)C)C(=O)N[C@@H](CCCNC(=N)N)C(=O)N[C@@H](CC(N)=O)C(=O)N[C@@H](CC(C)C)C(=O)N[C@H](C(N)=O)C(C)C — HC50 (human erythrocytes; hemolysis; 1 h, 37 °C; relative to: Triton X-100): < 35 µM
COc1cc(/C=C/C=C2\SC(=S)NC2=O)cc(OC)c1O — viability (HEK-293T; CellTiter-Glo; 1.25 µM, 24 h, unit not given; relative to: untreated): 1.01 and 1.02
CC[C@@H]1[C@H](F)C(=O)N[C@@H]1COc1nccc2cc(C(N)=O)c(OC)cc12 — inhibition (Serine/threonine-protein kinase tousled-like 1 (TLK1, Homo sapiens, UniProt Q9UKI8); ATP-site probe binding, ActivX profiling; THP-1 cell lysate; 0.2 mM, Lys1 site): 4.8%
COc1cccc(-c2n[nH]c(SCc3ccccn3)n2)c1OC — structural aberrations per 100 cells (primary human lymphocytes; 0.25 mg/mL, 3 h, together with: rat liver S9): 3
Nc1ccn([C@H]2CC[C@@H](CO)O2)c(=O)n1 — CC50 (PBMC): > 10 µM
NC1(C(=O)N[C@@H](CCO)c2ccc(Cl)cc2)CCN(c2nc[nH]c3nccc2-3)CC1 — incidence of Somnolence (metastatic CRPC patients; 480 mg b.i.d., any grade, treatment-related, together with: enzalutamide 160 mg daily): 0%
C[C@@H]1O[C@@H](OC[C@H]2O[C@@H](Oc3c(-c4ccc(OCCO)c(OCCO)c4)oc4cc(OCCO)cc(O)c4c3=O)[C@H](O)[C@@H](O)[C@@H]2O)[C@H](O)[C@H](O)[C@H]1O — efflux ratio (Caco-2 monolayers; 100 µg/mL, 2 h; relative to: Papp(BL-AP) over Papp(AP-BL)): 0.43 ± 0.1
O=C(CS)NCCCCCC(=O)Nc1cccc2cccnc12 — recovery (Caco-2 monolayers; apical and basolateral sides; time not given; relative to: amount applied): > 90%
CC(C)C[C@H](NC(=O)C[C@H](O)[C@H](CC(C)C)NC(=O)[C@H](Cc1c[nH]cn1)NC(=O)CNC(=O)[C@@H](NC(=O)[C@H](C)NC(=O)[C@H](Cc1c[nH]c2ccccc12)NC(=O)[C@H](CCC(N)=O)NC(=O)[C@@H](Cc1ccccc1)NC(=O)COCCOCCNC(=O)CCC(C(=O)O)N1CCN(CC(=O)O)CCN(CC(=O)O)CCN(CC(=O)O)CC1)C(C)C)C(N)=O (stereo partly drawn) [lutetium-177 labelled] — tissue uptake (female BALB/c nu/nu mice, lung; intravenous, 100 pmol, 24 h, together with: PA 300 µg): 0.05 ± 0.02 %ID/g
Cc1cc(Nc2ncnc3ccc(NC4=NC(C)(C)CO4)cc23)ccc1Oc1ccn2ncnc2c1 — Tmax, median (Cytochrome P450 3A4 (CYP3A4, Homo sapiens, UniProt P08684); human, plasma; oral, 300 mg, day 1, single dose alone): 3 h
COc1ccc(CCC(=O)c2c(O)cc(O[C@@H]3O[C@H](CO)[C@@H](O)[C@H](O)[C@H]3O[C@@H]3O[C@@H](C)[C@H](O)[C@@H](O)[C@H]3O)cc2O)cc1O — amount transported (Caco-2 monolayers; basolateral to apical transport; 100 µg/mL, 2 h): 7.29 ± 3.2%
Cc1ccc(S(=O)(=O)c2nc(S(=O)(=O)NCc3ccccc3)sc2Cl)cc1 — CC90 (HFF; 7 days): > 100 µM
CCCCCCCCCC(=O)N[C@@H](Cc1c[nH]c2ccccc12)C(=O)N[C@H](CC(N)=O)C(=O)N[C@@H](CC(=O)O)C(=O)N[C@@H]1C(=O)NCC(=O)N[C@@H](CCCN)C(=O)N[C@@H](CC(=O)O)C(=O)N[C@H](C)C(=O)N[C@@H](CC(=O)O)C(=O)NCC(=O)N[C@H](CO)C(=O)N[C@@H]([C@H](C)CC(=O)O)C(=O)N[C@@H](CC(=O)c2ccccc2N)C(=O)O[C@@H]1C — EC50 (L929; cytotoxicity, WST-1; mouse cells; 5 days, 5% FBS DMEM): 64 µM
O=C(CCc1ccc(O)cc1)c1c(O)cc(O)cc1O — amount transported (Caco-2 monolayers; basolateral to apical transport; 100 µg/mL, 2 h): 9.7 ± 1.2%
Cn1cc(-c2ccc(-c3cncc(Cl)c3N3CCC4(CCNC4=O)CC3)cc2)cn1 — log2 fold change (COLO 205; gene expression, microarray, measured: DHRS12 mRNA; concentration not given, 6 h; relative to: untreated cells): 2.16
NCc1cc2c(cc1F)C(=O)N(C1CCC(=O)NC1=O)C2 (stereo not drawn) — concentration (Amine oxidase [copper-containing] 3 (Mus musculus, UniProt O70423); substrate, LC-MS/MS; recombinant mouse enzyme; 10 µM, 20 h, pH 7.4, together with: inhibitor 0.25 µM): 3.4 µM
O=c1cc(-c2ccc(O)c(O)c2)oc2cc(O)cc(O)c12 — amount transported (Caco-2 monolayers; apical to basolateral transport; 100 µg/mL, 2 h): 5.62 ± 0.03%
C[C@H](CCC(=O)N[C@@H](Cc1ccccc1)C(=O)O)[C@H]1CC[C@H]2[C@@H]3[C@H](O)C[C@@H]4C[C@H](O)CC[C@]4(C)[C@H]3CC[C@]12C — recovery (HEK293T; LC-MS; serum-free conditioned medium; 100 µM, overnight; relative to: non-conditioned medium): 110%

Excerpt of the above:
Cc1cc(Nc2ncnc3ccc(NC4=NC(C)(C)CO4)cc23)ccc1Oc1ccn2ncnc2c1 — Tmax, median (Cytochrome P450 3A4 (CYP3A4, Homo sapiens, UniProt P08684); human, plasma; oral, 300 mg, day 1, single dose alone): 3 h
C[C@H](Cn1cnc2c(N)ncnc21)OCP(=O)(O)O — slope of fold mRNA vs concentration (cryopreserved human hepatocytes, donor LLT; CYP3A4 induction, measured: CYP3A4 mRNA; concentration not given, 48 h): -0.00225
C[C@@H]1O[C@@H](OC[C@H]2O[C@@H](Oc3c(-c4ccc(OCCO)c(OCCO)c4)oc4cc(OCCO)cc(O)c4c3=O)[C@H](O)[C@@H](O)[C@@H]2O)[C@H](O)[C@H](O)[C@H]1O — efflux ratio (Caco-2 monolayers; 100 µg/mL, 2 h; relative to: Papp(BL-AP) over Papp(AP-BL)): 0.43 ± 0.1
Nc1ccn([C@H]2CC[C@@H](CO)O2)c(=O)n1 — CC50 (PBMC): > 10 µM
CCCC(CCC)NC(=O)c1ccc2c(c1)OCO2 — cells with aberrations (CHO-WBL; 0.19 mg/mL, without S9, exposure): 0.5%
